{"data": "Measurements gathered from unrelated publications", "note": "Each numbered part is a random draw from the data of one study; scales do not carry over between parts."}
{"data": "Set 1", "target": "RNA binding protein fox-1 homolog 2, RRM domain, GST-SBP tag (RBFOX2, Homo sapiens, UniProt O43251-10, residues 100-194)", "technique": "RNA Bind-n-Seq", "form": "RNA", "medium": "in vitro", "tested at": "365 nM", "notes": "natural RNA segment, single round, ends assumed", "reference": "no-protein control", "direction": "higher = stronger binding", "shared flanks, not repeated": "GGGAGUUCUACAGUCCGACGAUC … UGGAAUUCUCGGGUGCCAA", "Target sequence (chain)": "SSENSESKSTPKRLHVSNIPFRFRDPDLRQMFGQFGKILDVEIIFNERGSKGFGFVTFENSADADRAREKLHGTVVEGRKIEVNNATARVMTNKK"}
{"Strand": "UCCAGCUUGAAGGAUUGCAUCCUGCAGGGAAUGAGCACACCUGCCAAGGACACGUGCGCCUGCCUUCCCGCUCCCUCUCUCUCAGAGAUUGCCCUUUCUUCCCGAGGGCU", "RBNS enrichment (R)": 1.24}
{"Strand": "GAACAGGCAUUUUACACUAUGAAGACAUUCUUUUGAGAUUUUUAUUUCAGUUGCUAUAUCAUAAGCAUUUUUAAAGUUUCUUUUCUAAUUUUACAUUGUAUUAGAUUUUC", "RBNS enrichment (R)": 1.57}
{"Strand": "AGGGUAUACUUAGCACCACACCACACAGCGCCUAGACCCAGGCAUUUUACUGGGGUGAUUCGGCUGUUGUCUUUGUGAAAUCCGGGGAAACAGAUCACUGAAAUUCAAAG", "RBNS enrichment (R)": 0.327}
{"Strand": "CUGUCCAGCCUCUGAGUACCAUGUUAUUUCAGCUCCAUGUUGCCCUGCAACAGGAAGCAGGAAGGUUGCUCGCCCUGUUUCCAGAGAUUGCAAUAAAGCAGUGUGAGGGG", "RBNS enrichment (R)": 0.243}
{"Strand": "UUCUGGAUUCAGCCACUAAGGACAUCUGUGGUACAAGGUGCACCUUUGCAAAUGUGUAUGAUGCCAGUUGUUUGGACUCUUGGAAAACACCACUGGAGGGCUUUGCUCCA", "RBNS enrichment (R)": 0.511}
{"Strand": "CUCAGUUCCUUCAUUCAGAUGGUUGGGUACGUGCUUGUGGCUGAGGAAGGGCGGGUGGUGUGGACAGUGUGUCAGGAGUGGUGUCACACGUGUCACACUGUUUGGAGGGG", "RBNS enrichment (R)": 3.14}
{"data": "Set 2", "target": "RING finger protein unkempt homolog, zinc fingers 1-6, GST-SBP tag (UNK, Homo sapiens, UniProt Q9C0B0, residues 30-357)", "technique": "RNA Bind-n-Seq", "form": "RNA", "medium": "in vitro", "tested at": "not given", "notes": "RNA with constant flanks, ends assumed", "reference": "input RNA pool", "direction": "higher = stronger binding", "UniProt Q9C0B0, sequence (30-357, looked up)": "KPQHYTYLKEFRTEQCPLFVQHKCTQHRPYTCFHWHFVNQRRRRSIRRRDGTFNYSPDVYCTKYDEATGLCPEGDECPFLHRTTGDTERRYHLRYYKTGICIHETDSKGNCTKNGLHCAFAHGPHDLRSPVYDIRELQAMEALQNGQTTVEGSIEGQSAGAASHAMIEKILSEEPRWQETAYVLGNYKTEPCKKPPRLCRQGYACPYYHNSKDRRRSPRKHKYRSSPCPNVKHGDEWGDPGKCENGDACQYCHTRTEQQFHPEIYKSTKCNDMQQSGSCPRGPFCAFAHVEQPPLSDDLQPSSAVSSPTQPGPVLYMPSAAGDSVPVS"}
{"Strand": "GGGAGUUCUACAGUCCGACGAUCUCCUGGUGCGACAGCGUGGGACAAUGUGAACAUGGACUCGAAGACAUGGCCCUUUCUCUGCCGUUGAUUUUUUAAAUGUGCCAUUAUUGUUUUUAAAAAAAAAGGAAAAAAGAAAAGCAACAACAGAGGAUUGAGCAUCA", "bound/input enrichment": "0.247 ratio"}
{"Strand": "GGGAGUUCUACAGUCCGACGAUCAGCACUGAGAGCAGUCCAUCCAUUGCCACAGUAUGUCAUAGUGAGGAAGUCAGGGAGACCUCCGAAAGCAAUACAAACCUUCAUAAUCGCACUGAGACAGAGCAUACUCCAGCAGUUUGUCAACAGAGGAUUGAGCAUCA", "bound/input enrichment": "0.25 ratio"}
{"Strand": "GGGAGUUCUACAGUCCGACGAUCAUCUAGUUAGGGGUAACCAUUAAUUUAUUUUAUAAAGAAAGGAAAUGCUGAAAGUCGUAUCCGUACUGAGUUUAGUUGGAGAAUUUAGAUAAGUAAGUAUCUUUUAGGUAAUUCUAAAAUCAACAGAGGAUUGAGCAUCA", "bound/input enrichment": "21.1 ratio"}
{"data": "Set 3", "target": "Prothrombin, mature alpha-thrombin (F2, Homo sapiens, UniProt P00734)", "technique": "aptamer microarray, sandwich", "form": "DNA with 2'F-ANA", "medium": "in vitro", "tested at": "200 nM", "notes": "whole 15-mer aptamer, many near background", "with": "Cy3 exosite-II aptamer, 400 nM", "direction": "higher = stronger binding", "strand": "GGTTGGTGTGGTTGG"}
{"Modification": "2'F-ANA at 1 5 6 8 9 10 11 14 15", "mean fluorescence intensity [a.u.]": 65.8}
{"Modification": "2'F-ANA at 1 4 5 6 7 10 11 12 15", "mean fluorescence intensity [a.u.]": 53.9}
{"Modification": "2'F-ANA at 1 2 8 10 11 12 13", "mean fluorescence intensity [a.u.]": 59.4}
{"Modification": "2'F-ANA at 2 3 4 7 9 10 11 13 14 15", "mean fluorescence intensity [a.u.]": 156}
{"Modification": "2'F-ANA at 4 7 8 9 10 14 15", "mean fluorescence intensity [a.u.]": 60.7}
{"Modification": "2'F-ANA at 1 7 9 10 15", "mean fluorescence intensity [a.u.]": 55.3}
{"Modification": "2'F-ANA at 1 2 8 10 12 13 14 15", "mean fluorescence intensity [a.u.]": 49}
{"data": "Further values, each from its own experiment"}
{"Molecule": "PhoQ, residues 284 288 289 292 302 303 NLCILV", "target": "PhoP, residues 12 14 15 18 19 LHHVQ (Escherichia coli, UniProt P23836)", "test": "Sort-seq, measured: YFP reporter", "test system": "E. coli", "conditions": "PhoQ-PhoP variant library, with: 10 µM Mg2+", "scale": "reference: high Mg2+ state, higher = stronger signaling", "measurement": "fold induction", "value": 7.35}
{"note": "For quick reference, copied from above (set 1):"}
{"Strand": "UCCAGCUUGAAGGAUUGCAUCCUGCAGGGAAUGAGCACACCUGCCAAGGACACGUGCGCCUGCCUUCCCGCUCCCUCUCUCUCAGAGAUUGCCCUUUCUUCCCGAGGGCU", "RBNS enrichment (R)": 1.24}
{"Strand": "AGGGUAUACUUAGCACCACACCACACAGCGCCUAGACCCAGGCAUUUUACUGGGGUGAUUCGGCUGUUGUCUUUGUGAAAUCCGGGGAAACAGAUCACUGAAAUUCAAAG", "RBNS enrichment (R)": 0.327}
